{"data": "Measurements gathered from unrelated publications", "note": "A part holds a random share of what one study measured. Substitutions count along the parent as printed."}
{"data": "Sample 1", "target": "Interferon regulatory factor 3, full length, phosphomimetic (IRF3, Homo sapiens, UniProt Q14653, residues 1-427, S386D/S396D/S398D/S402D/T404D/S405D)", "method": "protein-binding microarray", "form": "double-stranded DNA, one strand shown", "sample": "in vitro", "tested at": "2540 nM top", "setting": "60-bp whole probe", "with": "salmon DNA 0.4 mg/ml", "reference": "random background probes", "reading": "higher = stronger binding", "all sequences stand within": "GCCTAGCAC … GTCTTGATTCGCTTGACGCTGCTG", "UniProt Q14653, sequence (whole entry, unmodified, looked up)": "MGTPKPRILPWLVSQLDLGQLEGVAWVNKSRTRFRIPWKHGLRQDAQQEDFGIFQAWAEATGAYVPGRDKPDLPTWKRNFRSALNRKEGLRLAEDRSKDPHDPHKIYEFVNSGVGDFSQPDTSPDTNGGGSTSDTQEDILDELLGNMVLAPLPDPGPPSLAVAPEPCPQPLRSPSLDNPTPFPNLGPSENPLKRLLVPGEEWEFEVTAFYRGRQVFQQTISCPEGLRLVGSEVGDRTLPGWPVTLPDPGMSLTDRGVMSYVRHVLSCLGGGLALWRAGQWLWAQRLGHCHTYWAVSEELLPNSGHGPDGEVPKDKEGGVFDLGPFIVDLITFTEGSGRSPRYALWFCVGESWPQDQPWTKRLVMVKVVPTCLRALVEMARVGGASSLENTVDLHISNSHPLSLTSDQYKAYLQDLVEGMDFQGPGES"}
{"Strand": "CATTCTCTGCTTCTGTATGGGTGCTAG", "fitted relative affinity": "4.66 z-score"}
{"Strand": "GACGGTTTCCTTATCCTGACGTGCTAG", "fitted relative affinity": "7.57 z-score"}
{"Strand": "TTAGGTTCCCTACTGCTTTAGTGCTAG", "fitted relative affinity": "3.44 z-score"}
{"Strand": "GACAGTTTCGACTTTCGGGACGTGCTA", "fitted relative affinity": "4 z-score"}
{"Strand": "GACGGACCGGGGACTGGGGACGTGCTA", "fitted relative affinity": "-0.989 z-score"}
{"Strand": "TTAGGACTGCTTCTCCTTAAGTGCTAG", "fitted relative affinity": "0.116 z-score"}
{"Strand": "GACGGTTTTGACTATCGGGACGTGCTA", "fitted relative affinity": "0.7 z-score"}
{"Strand": "AAACCATCCTGTATGGATGTGTGCTAG", "fitted relative affinity": "0.783 z-score"}
{"Strand": "TTAGATTTCAGTTTGGATTAGTGCTAG", "fitted relative affinity": "2.01 z-score"}
{"Strand": "CTTCCCCTCTCATTCCAATTGTGCTAG", "fitted relative affinity": "2.22 z-score"}
{"Strand": "GACGAACAGAGACTGGAGACGTGCTAG", "fitted relative affinity": "-0.172 z-score"}
{"Strand": "GACGGACTGTACTATCGGGACGTGCTA", "fitted relative affinity": "0.00436 z-score"}
{"Strand": "TCACTTTTGCTTGTTCTTACTGTGCTA", "fitted relative affinity": "1.15 z-score"}
{"Strand": "TAGATATTATATCTGTGTTAGTGCTAG", "fitted relative affinity": "0.0498 z-score"}
{"Strand": "ACTTCTCCATTTTTCTAGTCGTGCTAG", "fitted relative affinity": "2.38 z-score"}
{"Strand": "TTCTATGTCTGTTTTTGCTTGTGCTAG", "fitted relative affinity": "0.581 z-score"}
{"Strand": "GACGGTTTCGGGTATCGGAACGTGCTA", "fitted relative affinity": "5.23 z-score"}
{"Strand": "TACGGACTGGGTCTCGGGACGTGCTAG", "fitted relative affinity": "-0.764 z-score"}
{"Strand": "TTAGATAGCGGGACTGGATTAGTGCTA", "fitted relative affinity": "-0.731 z-score"}
{"Strand": "TGAGATTTCAGACTGGATTAGTGCTAG", "fitted relative affinity": "0.2 z-score"}
{"Strand": "TCAGAACTGGGGTATCGATTAGTGCTA", "fitted relative affinity": "0.00936 z-score"}
{"Strand": "GACGGTCTCCTTCTCCTGTCGTGCTAG", "fitted relative affinity": "4.6 z-score"}
{"Strand": "GACGGTATACTTTTCCTGACGTGCTAG", "fitted relative affinity": "1.16 z-score"}
{"Strand": "TCATACTTCCCACTGGTACTGTGCTAG", "fitted relative affinity": "0.507 z-score"}
{"Strand": "TTAGGTCTCTTTATCCTTTAGTGCTAG", "fitted relative affinity": "1.29 z-score"}
{"data": "Sample 2", "target": "CCNA2, cyclin fold, Cln2 fusion (human)", "method": "yeast growth competition, sequencing", "sample": "yeast", "setting": "strong parent motif", "reference": "not given", "reading": "higher = stronger binding", "starting sequence": "MICAL3 docking peptide (human); LQLRRQLSFSEDS"}
{"Variant": "E11M", "normalised enrichment score": 2.7}
{"Variant": "E11I", "normalised enrichment score": 2.01}
{"Variant": "D12A", "normalised enrichment score": 3.83}
{"Variant": "R4T", "normalised enrichment score": -0.062}
{"Variant": "Q6S", "normalised enrichment score": 2}
{"Variant": "S10W", "normalised enrichment score": 1.72}
{"Variant": "E11R", "normalised enrichment score": 2.36}
{"Variant": "R4P", "normalised enrichment score": 1.31}
{"Variant": "Q2T", "normalised enrichment score": 3.66}
{"Variant": "S8T", "normalised enrichment score": 3.61}
{"Variant": "Q6C", "normalised enrichment score": 3.64}
{"Variant": "Q6N", "normalised enrichment score": 0.76}
{"Variant": "E11S", "normalised enrichment score": 3.45}
{"data": "Sample 3", "target": "Sal-like protein 4, full length isoform A (SALL4, Homo sapiens, UniProt Q9UJQ4, residues 1-1053)", "method": "universal PBM", "form": "double-stranded DNA, one strand shown", "sample": "in vitro", "tested at": "600 nM", "setting": "8-mer, flanks averaged, mean of replicates", "reading": "higher = stronger binding", "UniProt Q9UJQ4, sequence (whole entry, looked up)": "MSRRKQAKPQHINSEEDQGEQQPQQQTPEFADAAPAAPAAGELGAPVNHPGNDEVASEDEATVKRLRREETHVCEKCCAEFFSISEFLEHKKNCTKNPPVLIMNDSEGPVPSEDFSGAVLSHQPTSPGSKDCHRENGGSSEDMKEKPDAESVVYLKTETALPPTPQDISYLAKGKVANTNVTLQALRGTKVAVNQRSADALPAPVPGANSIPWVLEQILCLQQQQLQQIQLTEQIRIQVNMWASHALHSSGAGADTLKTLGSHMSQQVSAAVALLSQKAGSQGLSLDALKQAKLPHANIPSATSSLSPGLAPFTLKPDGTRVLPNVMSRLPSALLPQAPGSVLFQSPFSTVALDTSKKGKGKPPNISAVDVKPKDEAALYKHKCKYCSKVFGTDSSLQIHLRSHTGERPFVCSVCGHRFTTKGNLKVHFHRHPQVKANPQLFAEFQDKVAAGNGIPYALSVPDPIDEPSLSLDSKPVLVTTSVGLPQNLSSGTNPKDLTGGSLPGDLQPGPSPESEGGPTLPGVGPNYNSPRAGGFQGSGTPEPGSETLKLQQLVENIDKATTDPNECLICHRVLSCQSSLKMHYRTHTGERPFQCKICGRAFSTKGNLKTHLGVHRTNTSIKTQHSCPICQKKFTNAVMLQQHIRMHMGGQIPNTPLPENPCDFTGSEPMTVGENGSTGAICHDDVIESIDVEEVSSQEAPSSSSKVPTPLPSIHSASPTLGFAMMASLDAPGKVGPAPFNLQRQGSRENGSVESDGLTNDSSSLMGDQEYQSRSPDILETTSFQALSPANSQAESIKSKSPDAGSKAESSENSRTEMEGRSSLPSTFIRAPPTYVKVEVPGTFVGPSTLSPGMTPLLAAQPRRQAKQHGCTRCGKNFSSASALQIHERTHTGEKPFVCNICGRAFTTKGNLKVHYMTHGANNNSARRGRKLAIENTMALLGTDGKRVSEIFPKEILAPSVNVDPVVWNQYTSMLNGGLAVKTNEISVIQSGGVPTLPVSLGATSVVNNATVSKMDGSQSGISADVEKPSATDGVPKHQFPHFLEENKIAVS"}
{"Strand": "AATTGTTC", "E-score": 0.303}
{"Strand": "AAGGCCAT", "E-score": -0.0446}
{"Strand": "AAAAACAG", "E-score": 0.169}
{"Strand": "GCCAACCC", "E-score": -0.195}
{"Strand": "ACTTCTAG", "E-score": -0.138}
{"Strand": "AGCTTTTC", "E-score": 0.00271}
{"Strand": "CAGGCAGG", "E-score": -0.181}
{"Strand": "CAGGCACC", "E-score": -0.288}
{"Strand": "CGGCTCAG", "E-score": -0.25}
{"Strand": "ACGGTCAC", "E-score": -0.285}
{"Strand": "ACATTATG", "E-score": 0.277}
{"Strand": "ACGTTGCT", "E-score": -0.00835}
{"Strand": "ACAACTGG", "E-score": -0.108}
{"Strand": "AGCGATGA", "E-score": -0.0307}
{"Strand": "ATTGAGGC", "E-score": 0.0263}
{"Strand": "GCCTCACC", "E-score": -0.287}
{"Strand": "AGTGTTGG", "E-score": -0.135}
{"Strand": "ATTCAGAC", "E-score": 0.0989}
{"Strand": "CGGTTGCA", "E-score": -0.225}
{"Strand": "AAGGGGAA", "E-score": -0.128}
{"Strand": "CGCTTCTA", "E-score": -0.0817}
{"Strand": "GCTTCCCA", "E-score": -0.108}
{"Strand": "TACGCGTA", "E-score": -0.00123}
{"Strand": "AACAAGCC", "E-score": -0.0913}
{"Strand": "CCGGACCA", "E-score": -0.267}
{"data": "Sample 4", "target": "Ras GTPase-activating protein-binding protein 1, RRM domain (G3BP1, Homo sapiens, UniProt Q13283)", "method": "RNA Bind-n-Seq", "form": "RNA", "sample": "in vitro", "tested at": "1 µM", "setting": "whole 134-nt RNA, ends assumed", "with": "150 mM KCl", "reference": "input library", "reading": "higher = stronger binding", "all sequences stand within": "GGGAGUUCUACAGUCCGACGAUC … UGGAAUUCUCGGGUGUCAAGG", "UniProt Q13283, sequence (whole entry, looked up)": "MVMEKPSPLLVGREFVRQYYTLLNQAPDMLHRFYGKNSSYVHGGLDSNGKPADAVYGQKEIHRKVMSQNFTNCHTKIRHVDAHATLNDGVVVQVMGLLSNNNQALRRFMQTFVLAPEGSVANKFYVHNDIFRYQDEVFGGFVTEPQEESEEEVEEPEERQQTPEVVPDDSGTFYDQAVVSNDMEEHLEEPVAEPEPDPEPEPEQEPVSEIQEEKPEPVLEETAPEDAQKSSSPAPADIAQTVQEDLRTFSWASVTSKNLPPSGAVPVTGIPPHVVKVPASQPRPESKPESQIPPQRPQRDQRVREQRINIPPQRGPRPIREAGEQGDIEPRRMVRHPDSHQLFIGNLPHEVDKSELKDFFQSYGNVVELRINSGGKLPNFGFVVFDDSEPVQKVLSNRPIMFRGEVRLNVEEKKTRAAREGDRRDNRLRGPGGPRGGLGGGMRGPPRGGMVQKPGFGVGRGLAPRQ"}
{"Strand": "CCUCAAGUCCUGUGCUACACAUCGUAUGUACCGAAUCGGGCGGGCGGGGCGGGAAAGUAUUAUGUUACGCCGUUCGGAUCUGCACUUCCA", "log2 enrichment": 0.686}
{"Strand": "UCAAGUCCUGUGCUACACAUCGUAUGUACCGAAUCGGAAAGGAGGAAAAAAAGGAAAGUAUUAUGUUACGCCGUUCGGAUCUGCACUUCC", "log2 enrichment": -0.221}
{"Strand": "UGGAAGGAACGAGCCAGGAAGAGGGACUGGAACCAUCUCAGAAGCCAUGCCCCUCAGGCUGGAACUUGCCCUGUCUCCUCGCAGAUGAGG", "log2 enrichment": -0.592}
{"Strand": "CUCAAGUCCUGUGCUACACAUCGUAUGUACCGAAUCGGUUUGGAGGAAAAAGGAAAGUAUUAUGUUACGCCGUUCGGAUCUGCACUUCCA", "log2 enrichment": -0.229}
{"Strand": "GUCCUGUGCUACACAUCGUAUGUACCGAAUCGGCCCCCGGGCCCCCGGGGCCCCCGGGGAAAGUAUUAUGUUACGCCGUUCGGAUCUGCA", "log2 enrichment": -0.453}
{"Strand": "CACAGACAACACGCACCCACACAGACACAGAGGGAAGGUGUUGGGAUGGGGACAGGGUGCACAGCAGGGCGGGGUAGGACCCCAGCCCCU", "log2 enrichment": -0.116}
{"Strand": "UCCUGUGCUACACAUCGUAUGUACCGAAUCGGGGUUUUUUUGGGGUUUUUGGGGAGGGGAAAGUAUUAUGUUACGCCGUUCGGAUCUGCA", "log2 enrichment": 0.438}
{"Strand": "UGGCCCUGGUGGCAUGCGGGGAGGAAGAGGUGGCCUCAUGGAUCGUGGUGGUCCCGGUGGAAUGUUCCGAGGUGGCCGUGGUGGAGACAG", "log2 enrichment": 2.39}
{"Strand": "GCAGGAAGUAAAAACAAAUGGAAAUGCUUCGGAUAGUGGCAGGGGUGGGGGUUGCUAGGGAAAGGGUGGGAUGGGAGUGGGUAAAGAGUU", "log2 enrichment": 1.32}
{"Strand": "CAAGUCCUGUGCUACACAUCGUAUGUACCGAAUCGGAAAAAGGUUUUUGGUUUGGAAAGUAUUAUGUUACGCCGUUCGGAUCUGCACUUC", "log2 enrichment": -0.333}
{"Strand": "AUAGAUUGCGCAGUCUCUUUGUGGAGAGGACUUGAUCAUUAAAGGAAUCAGCGUUCAUAUAUCCAAUGCCGAACCUAAGCACAAUAGCAA", "log2 enrichment": -0.0037}
{"Strand": "CCUGUGCUACACAUCGUAUGUACCGAAUCGGCCCCCCCGGCCCCCCCGGGCCCCCCCGGGAAAGUAUUAUGUUACGCCGUUCGGAUCUGC", "log2 enrichment": -0.7}
{"Strand": "AAGUCCUGUGCUACACAUCGUAUGUACCGAAUCGGUUUUGGGUUUUGGGGUUUUGGGAAAGUAUUAUGUUACGCCGUUCGGAUCUGCACU", "log2 enrichment": -0.163}
{"Strand": "ACCAUGCAGGUGGGCAUCUUUGGGAAGUGGGGCAAGGGGGGGAUAGGGAGGGGGGUAACACUUUGGGAACAGGUUGUCCCAGGUCGUUUC", "log2 enrichment": 1.02}
{"data": "Sample 5", "target": "ABI1, truncated, D143A, DHFR fusion (Arabidopsis thaliana)", "method": "DHFR PCA, deep sequencing", "sample": "yeast", "setting": "methotrexate growth selection, single substitutions", "with": "(+)-ABA 2500 µM", "reference": "wild-type fitted maximum", "reading": "higher = stronger binding", "starting sequence": "PYL1, truncated, DHFR fusion (Arabidopsis thaliana); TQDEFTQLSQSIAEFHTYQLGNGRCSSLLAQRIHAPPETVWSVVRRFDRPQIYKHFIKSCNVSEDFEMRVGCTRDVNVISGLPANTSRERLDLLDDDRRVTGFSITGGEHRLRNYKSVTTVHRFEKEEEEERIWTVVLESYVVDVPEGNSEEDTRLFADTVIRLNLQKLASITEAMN"}
{"Variant": "R32V", "relative binding score": "91.1%"}
{"Variant": "V76R", "relative binding score": "36.5%"}
{"Variant": "T106L", "relative binding score": "106%"}
{"Variant": "E14P", "relative binding score": "66.2%"}
{"Variant": "E109R", "relative binding score": "98.8%"}
{"Variant": "T1G", "relative binding score": "94.5%"}
{"Variant": "K58R", "relative binding score": "96.1%"}
{"Variant": "T73N", "relative binding score": "93.5%"}
{"Variant": "I12L", "relative binding score": "89.9%"}
{"Variant": "P50G", "relative binding score": "15.5%"}
{"Variant": "T120P", "relative binding score": "-7.73%"}
{"note": "A few entries again (sample 2):"}
{"Variant": "Q6C", "normalised enrichment score": 3.64}
{"Variant": "Q6N", "normalised enrichment score": 0.76}
{"Variant": "E11R", "normalised enrichment score": 2.36}
{"Variant": "Q2T", "normalised enrichment score": 3.66}
{"Variant": "R4T", "normalised enrichment score": -0.062}
{"Variant": "R4P", "normalised enrichment score": 1.31}
{"Variant": "E11M", "normalised enrichment score": 2.7}
{"Variant": "Q6S", "normalised enrichment score": 2}
{"Variant": "S8T", "normalised enrichment score": 3.61}
{"Variant": "E11S", "normalised enrichment score": 3.45}
